Measurements collected from several papers.
Protocols differ between the studies behind these lines. Numbers after ± are the reported error.
Oprk1: Kappa-type opioid receptor (Oprk1, Rattus norvegicus, UniProt P34975)
Sequence of UniProt P34975 (whole entry, looked up): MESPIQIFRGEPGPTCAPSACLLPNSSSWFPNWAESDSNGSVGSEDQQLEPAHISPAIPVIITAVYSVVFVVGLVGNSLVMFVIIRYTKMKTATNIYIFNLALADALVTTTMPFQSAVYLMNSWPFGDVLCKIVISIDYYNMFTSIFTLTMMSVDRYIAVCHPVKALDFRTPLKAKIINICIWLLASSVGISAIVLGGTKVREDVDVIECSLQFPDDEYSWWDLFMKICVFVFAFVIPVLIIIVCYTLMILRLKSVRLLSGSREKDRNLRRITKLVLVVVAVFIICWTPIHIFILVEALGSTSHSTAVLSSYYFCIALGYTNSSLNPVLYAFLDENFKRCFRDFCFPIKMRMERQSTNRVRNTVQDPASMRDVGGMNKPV
Sequence of UniProt P00811 (whole entry, looked up): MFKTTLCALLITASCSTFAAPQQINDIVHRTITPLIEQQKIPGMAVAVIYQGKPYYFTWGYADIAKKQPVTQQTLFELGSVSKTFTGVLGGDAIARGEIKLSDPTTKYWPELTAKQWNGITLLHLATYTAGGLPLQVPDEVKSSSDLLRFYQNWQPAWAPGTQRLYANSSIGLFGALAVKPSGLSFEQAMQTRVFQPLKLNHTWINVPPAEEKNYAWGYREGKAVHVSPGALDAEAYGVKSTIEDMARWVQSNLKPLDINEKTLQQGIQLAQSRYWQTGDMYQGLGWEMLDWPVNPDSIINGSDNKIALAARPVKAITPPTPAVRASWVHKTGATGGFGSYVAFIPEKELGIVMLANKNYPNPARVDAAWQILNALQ
Sequence of UniProt O42275 (whole entry, looked up): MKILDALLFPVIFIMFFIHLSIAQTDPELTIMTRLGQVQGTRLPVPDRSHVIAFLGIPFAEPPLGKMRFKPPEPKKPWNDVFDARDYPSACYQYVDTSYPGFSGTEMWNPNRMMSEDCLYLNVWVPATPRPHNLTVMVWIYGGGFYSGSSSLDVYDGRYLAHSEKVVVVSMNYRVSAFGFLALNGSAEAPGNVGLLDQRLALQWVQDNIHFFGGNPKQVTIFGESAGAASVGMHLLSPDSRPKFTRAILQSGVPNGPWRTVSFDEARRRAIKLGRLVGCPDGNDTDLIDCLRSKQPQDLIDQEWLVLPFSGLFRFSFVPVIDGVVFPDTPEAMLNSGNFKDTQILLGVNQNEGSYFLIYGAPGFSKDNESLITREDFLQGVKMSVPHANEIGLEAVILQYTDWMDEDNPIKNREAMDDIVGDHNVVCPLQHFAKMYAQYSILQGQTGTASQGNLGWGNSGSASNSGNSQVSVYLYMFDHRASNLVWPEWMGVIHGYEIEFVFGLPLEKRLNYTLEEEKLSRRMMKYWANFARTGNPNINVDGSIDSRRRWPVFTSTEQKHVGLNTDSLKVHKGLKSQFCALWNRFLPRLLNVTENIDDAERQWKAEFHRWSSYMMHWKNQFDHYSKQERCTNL
Sequence of UniProt Q12908 (whole entry, looked up): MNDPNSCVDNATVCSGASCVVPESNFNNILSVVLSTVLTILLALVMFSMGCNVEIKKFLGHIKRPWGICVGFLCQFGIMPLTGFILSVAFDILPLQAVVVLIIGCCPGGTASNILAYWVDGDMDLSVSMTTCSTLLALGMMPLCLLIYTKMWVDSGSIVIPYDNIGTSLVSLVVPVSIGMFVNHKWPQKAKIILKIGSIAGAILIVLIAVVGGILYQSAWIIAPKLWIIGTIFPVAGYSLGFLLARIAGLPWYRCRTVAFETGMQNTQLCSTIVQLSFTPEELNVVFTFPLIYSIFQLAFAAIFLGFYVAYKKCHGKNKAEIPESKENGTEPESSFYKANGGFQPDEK
Sequence of UniProt P08510 (whole entry, unmodified, looked up): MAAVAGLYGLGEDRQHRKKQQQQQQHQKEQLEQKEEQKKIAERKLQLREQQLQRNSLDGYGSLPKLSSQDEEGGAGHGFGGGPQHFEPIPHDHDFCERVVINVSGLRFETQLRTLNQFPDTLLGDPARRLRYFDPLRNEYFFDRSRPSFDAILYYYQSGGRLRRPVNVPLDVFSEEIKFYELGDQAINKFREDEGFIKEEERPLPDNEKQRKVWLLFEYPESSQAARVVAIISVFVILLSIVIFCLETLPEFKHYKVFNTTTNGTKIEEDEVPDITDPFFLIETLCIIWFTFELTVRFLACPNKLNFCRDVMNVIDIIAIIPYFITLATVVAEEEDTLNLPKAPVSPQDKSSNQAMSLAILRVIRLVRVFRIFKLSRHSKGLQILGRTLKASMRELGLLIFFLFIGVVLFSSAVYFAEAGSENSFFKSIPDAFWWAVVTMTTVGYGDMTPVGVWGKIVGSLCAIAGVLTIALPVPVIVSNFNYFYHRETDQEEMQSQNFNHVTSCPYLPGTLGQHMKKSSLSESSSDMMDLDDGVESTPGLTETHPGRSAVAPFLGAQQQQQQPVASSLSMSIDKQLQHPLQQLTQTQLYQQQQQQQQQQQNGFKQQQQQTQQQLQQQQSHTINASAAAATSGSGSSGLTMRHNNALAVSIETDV
Sequence of UniProt Q13131 (whole entry, looked up): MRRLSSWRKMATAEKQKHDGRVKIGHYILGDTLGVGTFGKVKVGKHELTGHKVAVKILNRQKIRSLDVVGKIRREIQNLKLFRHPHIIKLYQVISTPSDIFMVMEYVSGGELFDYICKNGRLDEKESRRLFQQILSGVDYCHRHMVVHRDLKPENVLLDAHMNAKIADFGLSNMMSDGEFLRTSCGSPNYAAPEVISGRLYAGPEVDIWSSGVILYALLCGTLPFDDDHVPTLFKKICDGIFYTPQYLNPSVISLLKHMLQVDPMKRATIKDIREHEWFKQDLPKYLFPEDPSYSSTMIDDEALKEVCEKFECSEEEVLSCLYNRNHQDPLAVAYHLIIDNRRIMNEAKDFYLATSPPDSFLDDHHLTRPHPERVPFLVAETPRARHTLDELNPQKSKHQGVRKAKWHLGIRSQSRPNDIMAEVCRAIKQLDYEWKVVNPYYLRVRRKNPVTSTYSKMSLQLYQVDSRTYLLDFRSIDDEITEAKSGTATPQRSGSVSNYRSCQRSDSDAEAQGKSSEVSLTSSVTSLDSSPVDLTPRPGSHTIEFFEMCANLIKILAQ
Sequence of UniProt P35372 (whole entry, looked up): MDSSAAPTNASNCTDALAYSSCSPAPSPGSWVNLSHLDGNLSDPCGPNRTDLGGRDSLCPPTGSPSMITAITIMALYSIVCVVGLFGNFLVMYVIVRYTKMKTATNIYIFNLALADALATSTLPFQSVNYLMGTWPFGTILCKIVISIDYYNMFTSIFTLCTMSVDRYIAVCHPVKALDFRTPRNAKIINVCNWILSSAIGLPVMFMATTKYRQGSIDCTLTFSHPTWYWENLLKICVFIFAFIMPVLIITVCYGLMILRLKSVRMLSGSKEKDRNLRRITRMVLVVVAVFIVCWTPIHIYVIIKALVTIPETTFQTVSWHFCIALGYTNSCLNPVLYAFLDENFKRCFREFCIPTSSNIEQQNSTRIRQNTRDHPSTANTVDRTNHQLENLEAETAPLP
Sequence of UniProt P30550 (whole entry, looked up): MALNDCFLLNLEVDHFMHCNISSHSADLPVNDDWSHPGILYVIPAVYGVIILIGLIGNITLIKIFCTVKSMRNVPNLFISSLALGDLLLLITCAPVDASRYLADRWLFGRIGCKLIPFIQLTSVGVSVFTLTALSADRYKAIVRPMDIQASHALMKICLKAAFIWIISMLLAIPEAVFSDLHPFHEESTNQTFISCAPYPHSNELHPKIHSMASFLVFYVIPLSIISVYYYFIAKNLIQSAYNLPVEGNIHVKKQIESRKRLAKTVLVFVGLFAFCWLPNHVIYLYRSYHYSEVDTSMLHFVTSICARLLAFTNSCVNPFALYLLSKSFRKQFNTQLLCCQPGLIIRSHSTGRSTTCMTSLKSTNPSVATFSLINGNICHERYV
Sequence of UniProt P56817 (whole entry, looked up): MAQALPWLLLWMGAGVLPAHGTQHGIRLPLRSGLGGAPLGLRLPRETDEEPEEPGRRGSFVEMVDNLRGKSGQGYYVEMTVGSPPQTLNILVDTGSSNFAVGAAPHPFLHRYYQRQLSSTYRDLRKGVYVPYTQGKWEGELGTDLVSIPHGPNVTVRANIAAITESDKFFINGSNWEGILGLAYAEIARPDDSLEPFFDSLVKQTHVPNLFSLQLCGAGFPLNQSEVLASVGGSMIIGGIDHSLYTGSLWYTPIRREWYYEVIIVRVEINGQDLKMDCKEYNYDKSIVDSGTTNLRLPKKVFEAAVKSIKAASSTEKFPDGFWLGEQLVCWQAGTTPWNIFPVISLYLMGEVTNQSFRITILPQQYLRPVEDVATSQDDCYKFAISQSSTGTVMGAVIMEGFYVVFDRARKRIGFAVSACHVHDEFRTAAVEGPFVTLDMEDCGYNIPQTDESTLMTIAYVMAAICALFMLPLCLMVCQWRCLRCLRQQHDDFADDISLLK

`O=C1SCCC1NC(C(=O)NCc1ccccc1)C1CC1` (stereo not shown) has an alpha factor of 6.2 (TST (Homo sapiens, UniProt Q16762); substrate affinity change, activator, steady-state kinetics).
With `NS(=O)(=O)c1cc(Cl)sc1C(=O)O` the ligand efficiency was 0.29 (Beta-lactamase (ampC, Escherichia coli K-12, UniProt P00811)).
`N=C(N)NCCC[C@H](NC(=O)CNC(=O)CNC(=O)[C@H](CCCNC(=N)N)NC(=O)[C@H](Cc1ccc(O)cc1)NC(=O)[C@H](Cc1c[nH]c2ccccc12)NC(=O)[C@H](CCCNC(=N)N)NC(=O)[C@@H](N)Cc1c[nH]c2ccccc12)C(=O)N[C@@H](Cc1ccc(O)cc1)C(=O)N[C@@H](Cc1c[nH]c2ccccc12)C(=O)N[C@@H](CCCNC(=N)N)C(=O)N[C@@H](Cc1c[nH]c2ccccc12)C(N)=O` (single isomer, unassigned): “supershift concentration ratio” no less than 10 fold (Holliday junction DNA; EMSA; baseline: over apparent KD).
With `Cc1nc(=O)c(C[n+]2csc(CCO)c2C)c[nH]1` the ΔS was 14 ± 19 J/mol/K (nicotinamide riboside transporter PnuT (Shewanella woodyi, UniProt B1KPL9); binding, isothermal titration calorimetry; purified detergent-solubilized protein; 25 °C).
With `C/C(=N\OCCCN1CCCCC1)c1ccc(C(F)(F)F)cc1` the Ki ratio was 2.05 (rat sigma-1 receptor; binding; together with: phenytoin 250 µM; baseline: without over with phenytoin).
`CCCC[C@H](NC(=O)[C@H](Cc1ccccc1)NC(=O)[C@H](Cc1c[nH]cn1)NC(=O)CCNC(=O)[C@@H](NC(=O)[C@H](C)NC(=O)[C@H](Cc1c[nH]c2ccccc12)NC(=O)[C@H](CCC(N)=O)NC(=O)[C@H](N)Cc1ccc(O)cc1)C(C)C)C(N)=O`: “inositol phosphate level” 21000 ± 2520 dpm (GRPR (Homo sapiens, UniProt P30550); inositol phosphate generation, agonist; hGRPR/BALB cells; 1 µM; higher = stronger stimulation).
For `COc1ccccc1-c1nc2sc3c(c2c(=O)o1)CCC3`, the Hill slope was 1.08 (Genome polyprotein, 3C protease (rhinovirus B14, UniProt P03303); protease activity, SAMDI-MS).
With `O=C([O-])CN1CCN(CC(=O)NCCN(Cc2ccccn2)Cc2ccccn2)CCN(CC(=O)[O-])CCN(CC(=O)NCCN(Cc2ccccn2)Cc2ccccn2)CC1.[Gd+3]` the relaxivity r1 was 17.4 ± 0.5 mM⁻¹ s⁻¹ (Albumin, Zn(II)-bound (ALB, Homo sapiens, UniProt P02768); relaxometry 0.47 T; 600 µM, 310 K, together with: Zn(II) two equivalents).
For `COC[C@H]1CC[C@@H]2/C1=C\[C@@]1(C)CCC(C(C)C)=C1[C@@H](O[C@H]1O[C@H](CO)[C@@H](O)[C@H](O)[C@H]1O)[C@H](O)[C@@H]2C`, the threshold concentration was 1 µM (14-3-3 protein gamma, with p65 peptide (YWHAG, Homo sapiens, UniProt P61981); ternary complex formation, 2D fluorescence anisotropy titration).
`COC(=O)N(C)[C@@H](Cc1ccccc1)C(=O)N[C@@H](Cc1ccccc1)C(=O)N[C@@H](Cc1ccccc1)C(=O)N[C@@H](CCCNC(=N)N)C(=O)N[C@@H](CC(C)C)C(=O)N[C@@H](CCCNC(=N)N)C(=O)N[C@@H](CCCNC(=N)N)C(=O)N[C@H](C)C(=O)N[C@@H](CCCNC(=N)N)C(=O)N1CCC[C@H]1C(=O)N[C@@H](CCCCN)C(N)=O` has a pA2 of 8.07 (Oprk1; antagonist; together with: dynorphin A(1-13)NH2).
`CC(CCC(=O)NC(CCC(=O)Nc1cccnc1)C(=O)O)C1CCC2C3C(O)CC4CC(O)CCC4(C)C3CCC12C` (stereo not shown) gave a Kt of 1.06 µM (SLC10A2 (Homo sapiens, UniProt Q12908); transport, substrate, LC-MS/MS; ASBT-MDCK cells).
For `CSCC[C@H](N)C(=O)N[C@@H](C)C(=O)N[C@@H](C)C(=O)N[C@H](C(=O)N[C@@H](C)C(=O)NCC(=O)N[C@@H](CC(C)C)C(=O)N[C@@H](Cc1ccc(O)cc1)C(=O)NCC(=O)N[C@@H](CC(C)C)C(=O)NCC(=O)N[C@@H](CCCCN)C(=O)N[C@@H](CCCCN)C(=O)N[C@@H](CCCNC(=N)N)C(=O)N[C@@H](CCC(N)=O)C(=O)N[C@@H](Cc1c[nH]cn1)C(=O)N[C@@H](CCCNC(=N)N)C(=O)N[C@@H](CCCCN)C(=O)N[C@@H](CCCCN)C(=O)N[C@@H](CCC(N)=O)C(N)=O)C(C)C`, “fast time constant” read 37 ms (Sh (Drosophila melanogaster, UniProt P08510, A391C/C301S/C308S/del6-46/T449V); channel block; 0.5 µM, before MTSES modification).
`Cc1ccc(Oc2nc3cc(-c4ccc5c(ccn5C)c4)c(Cl)cc3[nH]2)cc1C(=O)O` gave a kon of 103000 ± 8000 M⁻¹ s⁻¹ (PRKAA1/PRKAB1, phosphorylated; with gamma1 (Homo sapiens, UniProt Q13131+Q9Y478); binding, biolayer interferometry; α1β1γ1 complex).
`CS(C)(=O)=Nc1ccc(-c2ccc(-c3nc4cc(O[C@@H]5CO[C@H]6[C@@H]5OC[C@H]6O)[nH]c4cc3F)cc2)cc1` has an EC150 of 0.221 nM (PRKAB2/PRKAA2 (Homo sapiens, UniProt O43741+P54646); enzyme activity, activator; 60 min, 50% above basal activity, together with: ATP 50 µM).
The Bmax of `CCN1CCCC1CNC(=O)c1cc(Br)cc(OC)c1O[11CH3]` (stereo not shown) is reported as 3.3 nmol/L (dopamine D2/D3 receptor; binding, multiple-injection PET; rhesus monkey, substantia nigra).
With `Cc1nc(-c2ccc(Cl)cc2)nc2sc3c(=O)n(CCN4CCOCC4)cnc3c12` the propidium displacement was 25% (ache (Electrophorus electricus, UniProt O42275); peripheral site binding; 1 µM).
For `CCN(Cc1ccccc1)C(=O)CCc1nc(CN2CCN(C(=O)Cc3ccc(OC)c(OC)c3)CC2)no1`, “V1/2 of activation” read -20.2 ± 1.32 mV (Scn10a (Rattus norvegicus, UniProt Q62968); whole-cell patch clamp; rat DRG neurons; 3 µM).
With `CC(C)[C@H]1CC[C@@H](N2CC[C@@](C)(c3cccc(O)c3)[C@@H](C)C2)CC1` the efficacy was 0% (OPRM1 (Homo sapiens, UniProt P35372); agonist).
For `COc1ccc2cc1Oc1ccc(cc1)C[C@H]1c3cc(c(OC)cc3CC[N@+]1(C)Cc1ccc3c(c1)C(=O)c1ccccc1C3=O)Oc1c(OC)c(OC)cc3c1[C@H](C2)[N@@+](C)(Cc1ccc2c(c1)C(=O)c1ccccc1C2=O)CC3`, the Stern-Volmer constant was 15300 M⁻¹ (poly(dG)·poly(dC) 18-bp dsDNA; DNA binding, ethidium bromide displacement; phosphate buffer, 10% DMSO; pH 7.2, 25 °C, dsDNA 10 µM, 10 mM NaCl, together with: ethidium bromide 5 µM).
For `CN1CCN(C(=O)N[C@@H](Cc2ccccc2)C(=O)N[C@H](/C=C/S(=O)(=O)c2ccccc2)CCc2ccccc2)CC1`, the kinact was 0.026 ± 0.007 s⁻¹ (Cathepsin B (CTSB, Homo sapiens, UniProt P07858); inactivator; pH 5.5, 25 °C, together with: Z-FR-AMC).
For `Cc1ccc(/C=C/C(=O)c2ccc(N3CCNCC3)cc2)cc1`, the remaining activity was 55.5% (Beta-secretase 1 (BACE1, Homo sapiens, UniProt P56817); enzyme activity, inhibitor, fluorescence; 10 µM).
`COC(=O)C1C(OC(c2ccc(Cl)cc2)c2ccc(Cl)cc2)CC2CCC1N2C` (single isomer, unassigned) — result for Ki: “inactive” (DRD1 (Homo sapiens, UniProt P21728); binding, radioligand displacement; inactive if below 75% at 10000 nM, together with: [3H]SCH 23390).
Under “adenylyl cyclase activity”, `CC(C)C[C@H](NC(=O)[C@H](CCCNC(=N)N)NC(=O)[C@H](Cc1ccccc1)NC(=O)[C@H](Cc1ccccc1)NC(=O)[C@H](Cc1ccccc1)N(C)C(=O)CN)C(=O)N[C@@H](CCCNC(=N)N)C(=O)N[C@@H](CCCNC(=N)N)C(=O)N[C@H](C)C(=O)N[C@@H](CCCNC(=N)N)C(=O)N1CCC[C@H]1C(=O)N[C@@H](CCCCN)C(N)=O` is recorded as 75 ± 8% (Oprk1; agonist; CHO cells; 10 µM; baseline: dynorphin A(1-13) amide).
The ka increase of `CC(=O)N[C@H]1[C@@H](OC[C@H](NC(=O)CNC(=O)[C@@H]2CCCN2C(=O)[C@H](C)NC(=O)[C@@H]2CCCN2C(=O)[C@@H](N)CCCNC(=N)N)C(=O)N[C@H](C(=O)N[C@@H](C)C(=O)N2CCC[C@H]2C(=O)N2CCC[C@H]2C(=O)N[C@@H](C)C(=O)N[C@@H](Cc2c[nH]cn2)C(=O)NCC(=O)O)[C@@H](C)O[C@H]2O[C@H](CO)[C@H](O)[C@H](O)[C@H]2NC(C)=O)O[C@H](CO)[C@H](O)[C@@H]1O` is reported as 1.8 fold (anti-MUC1 Fab 14 A wild type, murine; SPR; baseline: Glyco-T).
Under “number of binding sites”, `CC(C)P(=S)(NP(=S)(C(C)C)C(C)C)C(C)C` is recorded as 0.91 ± 0.06 (Alpha-amylase (Bacillus subtilis, UniProt P00691); fluorescence quenching; concentration not given, 310 K).

Some of these lines once more:
For `CN1CCN(C(=O)N[C@@H](Cc2ccccc2)C(=O)N[C@H](/C=C/S(=O)(=O)c2ccccc2)CCc2ccccc2)CC1`, the kinact was 0.026 ± 0.007 s⁻¹ (Cathepsin B (CTSB, Homo sapiens, UniProt P07858); inactivator; pH 5.5, 25 °C, together with: Z-FR-AMC).
For `Cc1ccc(/C=C/C(=O)c2ccc(N3CCNCC3)cc2)cc1`, the remaining activity was 55.5% (Beta-secretase 1 (BACE1, Homo sapiens, UniProt P56817); enzyme activity, inhibitor, fluorescence; 10 µM).
`COC(=O)C1C(OC(c2ccc(Cl)cc2)c2ccc(Cl)cc2)CC2CCC1N2C` (single isomer, unassigned) — result for Ki: “inactive” (DRD1 (Homo sapiens, UniProt P21728); binding, radioligand displacement; inactive if below 75% at 10000 nM, together with: [3H]SCH 23390).
Under “adenylyl cyclase activity”, `CC(C)C[C@H](NC(=O)[C@H](CCCNC(=N)N)NC(=O)[C@H](Cc1ccccc1)NC(=O)[C@H](Cc1ccccc1)NC(=O)[C@H](Cc1ccccc1)N(C)C(=O)CN)C(=O)N[C@@H](CCCNC(=N)N)C(=O)N[C@@H](CCCNC(=N)N)C(=O)N[C@H](C)C(=O)N[C@@H](CCCNC(=N)N)C(=O)N1CCC[C@H]1C(=O)N[C@@H](CCCCN)C(N)=O` is recorded as 75 ± 8% (Oprk1; agonist; CHO cells; 10 µM; baseline: dynorphin A(1-13) amide).
